Measurements collected from several papers.
Parts stem from different laboratories: compare values within a part only.

Series 1
Target: Centromere-binding protein 1, full length, His-tagged (CBF1, Saccharomyces cerevisiae, UniProt P17106, residues 1-351)
UniProt P17106, sequence (whole entry, looked up): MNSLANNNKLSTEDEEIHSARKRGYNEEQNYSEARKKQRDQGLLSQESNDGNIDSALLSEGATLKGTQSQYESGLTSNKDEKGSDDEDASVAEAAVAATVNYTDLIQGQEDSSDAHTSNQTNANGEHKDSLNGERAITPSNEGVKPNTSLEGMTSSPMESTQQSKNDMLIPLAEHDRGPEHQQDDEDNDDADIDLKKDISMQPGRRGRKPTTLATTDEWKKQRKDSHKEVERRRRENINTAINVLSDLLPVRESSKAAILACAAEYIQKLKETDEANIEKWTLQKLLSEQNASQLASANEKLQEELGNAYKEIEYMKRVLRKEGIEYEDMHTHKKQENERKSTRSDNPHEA
Method: competition protein-binding microarray
Molecule type: double-stranded DNA, one strand shown
Medium: in vitro
Concentration: 2 µM
Notes: whole 60-bp probe, lowest competitor level
Added: Pho4 competitor, 0.05 µM
Direction: higher = stronger binding
Constant ends, left off below: … GTCTTGATTCGCTTGACGCTGCTG
| Oligonucleotide | fluorescence intensity |
| --- | --- |
| TTCACTAGGCAAATCCACGTGCTTTAGCATTTCCAT | 1030 a.u. |
| TTATAATAAATAGTACACGTTGCAGACATATTTGGA | 152 a.u. |
| GTTTTGAATTCCCATCACAAAGGTTGACGAGCCGGC | 56.3 a.u. |
| CTCTTCTACAGTTACCACATGCAAAAGTCTTTCCTG | 112 a.u. |
| GAATATGAATGTTCCCTTAATCAGCCGGGATAATCT | 74.3 a.u. |
| TCCGAATACTGTATTAACAACGTAGAAGAACTGATG | 76.8 a.u. |
| CGTTATTGATATCGGCACGCAATGGTACTGGGGCAA | 67.3 a.u. |
| CTTTTTGGAAACGGCCACGTCTTTTGACAGATTTAG | 62.4 a.u. |
| TCTCATCCATTCCGTCACGCTTTGGTTGCCGGTATT | 129 a.u. |
| TGCTAGAGCTCGTTCCACGTGGTTACACATCCGCCA | 636 a.u. |
| TCATTTGGTGTCCATCACGTGGAATACCTCCCCTAT | 909 a.u. |
| CAACCGGCCTAGCATCACATGCTGATACCACTTGTA | 288 a.u. |
| ATAGCTGCACCAACGTCTCTAGTTAGATATAACGTA | 85.3 a.u. |
| TACAGCTGCCATTTGACCGTGCAATACAGCAAATTA | 77.5 a.u. |
| CCCCGAAATTGAGCGCACATGCTCGCAAGATAATAT | 227 a.u. |
| CCGATGGCACAACACCATGTGATGGGTTGGGAGTGG | 392 a.u. |
| CGTTATTTACTTCCACACGTGCTTTAAATGATGTGA | 2240 a.u. |
| GCCACATTGTATCAACGCGTGATGGACAAATGTTTG | 355 a.u. |
| TACTGAATGCTACTGACCGTGACGGTCTATCAGGCT | 61.6 a.u. |
| CGCGCTGCTCTAAGCACCGTGGGTAGGCCATGAAAT | 64.3 a.u. |

Series 2
Cell line: yeast with cyclin B3-Cln2 chimera
Observed: cell growth
Action: binder
Method: competitive growth deep sequencing
Molecule type: peptide
Concentration: concentration not given
Notes: peptide tiling library
Direction: direction not given
| Molecule | growth enrichment score |
| --- | --- |
| SMTDFYHSKRRLIFSK | -1.55 |
| RVSGLLSWTLSRVLWL | -0.384 |
| LKGRRLVFDN | 0.215 |
| GFGFLLFICKLTF | 0.144 |
| RRRIKLPESDSSED | 1.03 |
| PFSENVSAVQKLDFSD | 0.28 |
| KSKHEEEEWTDDDLVE | 0.47 |
| VKTKKRLNFDDK | 0.167 |
| TTTTSPRTPPPLTVQD | -0.161 |
| NSMKELNFSHLPSNSV | 0.708 |
| KVKRRLDLDIDGLQKE | -0.0282 |
| NEGVSNAVRRSLYIRD | 0.135 |
| RQVRRDLFAF | 0.382 |
| SPPRGRRLFPPGPAGF | -0.133 |
| KRRLDLETDHQY | 0.0484 |

Series 3
Target: RING finger protein unkempt homolog, zinc fingers 1-6, GST-SBP tag (UNK, Homo sapiens, UniProt Q9C0B0, residues 30-357)
Method: RNA Bind-n-Seq
Molecule type: RNA
Medium: in vitro
Concentration: not given
Notes: RNA with constant flanks, ends assumed
Relative to: input RNA pool
Direction: higher = stronger binding
Constant ends, left off below: GGGAGUUCUACAGUCCGACGAUC … CAACAGAGGAUUGAGCAUCA
Residues (chain): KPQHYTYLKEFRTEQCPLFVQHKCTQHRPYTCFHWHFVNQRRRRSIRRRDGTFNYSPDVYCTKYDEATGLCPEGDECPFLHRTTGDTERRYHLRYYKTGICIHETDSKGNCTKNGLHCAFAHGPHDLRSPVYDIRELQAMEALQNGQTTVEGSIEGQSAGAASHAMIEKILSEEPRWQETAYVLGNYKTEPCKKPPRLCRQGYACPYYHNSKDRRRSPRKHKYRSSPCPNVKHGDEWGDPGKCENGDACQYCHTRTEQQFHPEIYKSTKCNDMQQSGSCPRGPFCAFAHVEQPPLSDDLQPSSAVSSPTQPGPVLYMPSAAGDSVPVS
| Oligonucleotide | bound/input enrichment |
| --- | --- |
| GUCACAAGUAGGUUGGUAGAAAACAACCUGAUUCUGACCCUUUCUUUUUUUUUUUCCUGUUUCCGUCUCAGUAGAUCUUUUCAAGCACUGUCCUUACAGCUCAUGAAUGUUUAGGUCUUU | 0.633 ratio |
| GACCGCCUGGUAGCCUUUCCUACUCGAGUAGCAGGUGGAAUUGGAAUCACCUGUUGGAUUUCCGUCUGUAACAAAGUUGUGGCUAUCGUUCUCCACCCUUUCAGCUGAGGGGAAGGCCAG | 0.182 ratio |
| GCAACUUGGAAAGACUAUCUUUCAAGCUUCAAUUCUUACCUGACUAAGUCUGCUGAUUUUACCGAACAAUCUGUUUUUUACUGGGAACAGAUGACAGAUGGGUUUUUCAUUUUUGGUGAA | 0.188 ratio |
| GAACAGGAUGAUGAAGAUGAUUUAUCUGCUGGCUUGGCACUGAUUGACCUGGGUCAGAGUACCGAUAUGAAACUUUUUCCAAAAGGAACUAUAUUCACAGCAAAGUGUGAAACAUCUGGU | 0.226 ratio |
| AUAUCUUAUUGCCAUAAACUCCAUGUGGUUCACAGAGACUUAAAACCAGAGAAUGCCGUCUUCUUUGAAAAACAAGGUCUUGUAAAGUUGACAGACUUUGGGUUCAGCAACAAAUUUCAA | 0.124 ratio |
| UACAUGAUGAAAGCGUUCGACCUCAUCGUGGACCGACCCGUGACCCUCGUGAGAGAAUUUACCGAGCGGCAGCACGCAAAGAACAGGUAUUACUACUACCACCGGCAGUACCGCCGCGUG | 0.0759 ratio |
| GUGCUCCCUCGGGAUCUCUUCCAAAAGCUUUUCCGACAGGACCUGCUCGUGGCAAGUUUGUUCCGAAAUUUUUUAUUGGCAGAAAGAAUCAUGAGGUCAUAUAACUGCACCCCAGUAAGC | 0.119 ratio |
| UGGUAUACAGACCAGUUUUAGGACUGGUAAUCCAACAGGGACUUACCAGAAUGGUUAUGACCGCACUCAGCAAUACGGAAGUAAUGUUCCAAAUAUGCACAAUGGUAUGAACCAACAGGC | 0.127 ratio |
| AGCUCACAGUGCCCCUAGUCUGGGUGCCCGCUGUCCCCGACAAAUGUAACCACCUCCCUGCCCCGAAUACACACACGUCCUCCGGUGCAUGCACAACCACCCAGCAUCUUUCUUUGUGAU | 0.182 ratio |
| AAGACGAAGCUGGACACUCUAGCCACUGGUCAUCUCUUCCAGGAAGUGAGGUGCAUGAAACCCGUGCAGCACCCCAACAUUGUGCGUCUCUAUGAAGUCAUAGACACCCAGACCAAACUU | 0.117 ratio |
| ACACACACACACACUCUCUGAGCACAUUAUCUGUGAUUCUUUCAUCCUCCCAGAAAGGAUCAGUGUCCGAAUGGGAAAUAGAGUGUGCCAUCUUGCUCUUUUGUUGGCAGAUGUCCCCGC | 0.758 ratio |

Series 4
Target: Histone acetyltransferase KAT6A, winged helix 1, GST fusion (KAT6A, Homo sapiens, UniProt Q92794, residues 1-85)
Method: protein binding microarray
Molecule type: double-stranded DNA, one strand shown
Medium: in vitro
Concentration: not given
Notes: 8-mer, flanks averaged, mean of 2 arrays, mostly near background
Relative to: not given
Direction: higher = stronger binding
Construct (chain): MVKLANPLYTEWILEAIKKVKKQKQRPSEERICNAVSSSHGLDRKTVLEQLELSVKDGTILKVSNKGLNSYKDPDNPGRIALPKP
| Oligonucleotide | E-score |
| --- | --- |
| AATGATCC | -0.0109 |
| CCACTTCA | -0.114 |
| CGGAAAAA | 0.186 |
| CGGTACCA | 0.114 |
| GTTGTATA | -0.1 |
| ACTTCCTA | -0.147 |
| GTTAAGTA | -0.151 |
| GGCAGATA | 0.0897 |
| GGGTATAC | -0.0528 |
| TATACTGA | -0.13 |
| TAGCCACA | -0.191 |
| CCGAAGCA | -0.0391 |
| AGTACGCA | 0.11 |
| AGACGATC | -0.0856 |
| AATTAATC | -0.0184 |
| AAGCATGG | -0.0811 |
| ATTAGCTC | -0.162 |
| CCGGCTAA | 0.265 |

Some of these lines once more (series 4):
| Oligonucleotide | E-score |
| --- | --- |
| GTTGTATA | -0.1 |
| ACTTCCTA | -0.147 |
| GTTAAGTA | -0.151 |
| GGCAGATA | 0.0897 |
| GGGTATAC | -0.0528 |
| TATACTGA | -0.13 |
